Published values from different studies.
Numbers after ± are the reported error.

COc1ccc(-c2nc(N3CCOCC3)c3sc(CN(C)c4ncc(C(=O)NO)cn4)cc3n2)cn1 — CC50 (primary human fibroblasts uninfected; live/dead staining; 48 h): 1490 nM
Cc1nc(NCCCNc2ccnc3cc(Cl)ccc23)nc(-c2cccc([N+](=O)[O-])c2)c1C(=O)OC(C)C — minimum cytotoxic concentration (HEL; cell morphology): 20 µM
COc1ccc(Cn2cc(CO[C@@H]3O[C@H]4[C@H](OC[C@H]4O)[C@H]3O)nn2)cc1 — viability (SU-DHL10; cytotoxicity, CellTiter-Glo; up to 30 µM, 72 h): not toxic
CC1=CC[C@H]2[C@@H]([C@@H]1CC[C@H]1[C@]3(C)CC[C@H](O)C(C)(C)O[C@H]3CC[C@]1(C)O)C(C)(C)CC[C@]2(C)O — IC50 (HEK293 empty vector; cell viability, MTT; 72 h): > 50000 nM
Nc1ccn([C@@H]2O[C@H](CO)[C@@H](O)C2(F)F)c(=O)n1 — CC50 (primary human fibroblasts uninfected; live/dead staining; 48 h, capped at 10.00 µM): > 10000 nM
O=C(Nc1ccc(-c2ccccc2)cc1)[C@H]1O[C@H](O[C@@H]2[C@@H](OCc3ccc4ccccc4c3)[C@H](O[C@H]3O[C@H](CNS(=O)(=O)O)[C@@H](OCc4ccc5ccccc5c4)C[C@H]3NS(=O)(=O)O)[C@@H](NS(=O)(=O)O)C[C@H]2NS(=O)(=O)O)[C@H](OCc2ccc3ccccc3c2)[C@@H](NS(=O)(=O)O)[C@@H]1OCc1ccc2ccccc2c1 — viability (CAG myeloma cells; CCK-8; concentration not given, 48 h): 30%
O=c1[nH]c(=O)n([C@H]2C[C@H](O)[C@@H](CO)O2)cc1/C=C/Br — minimum cytotoxic concentration (HEL): > 250 µM
Cc1cc(Nc2ccc(S(F)(F)(F)(F)F)cc2)n2nc(C(C)(F)F)nc2n1 — free drug concentration (EL4; culture medium; 5 µM, 48 h): 600 nM
CC1(C)CCC(c2ccc(Cl)cc2)=C(CN2CCN(c3ccc(C(=O)NS(=O)(=O)c4ccc(N[C@H](CCN5CCOCC5)CSc5ccccc5)c(S(=O)(=O)C(F)(F)F)c4)cc3)CC2)C1 — drug secreted with TRL (mouse ileal enteroid monolayers; 50 % saturated solubility, 4 h, basolateral fractions 1-10, together with: oleic acid/monoolein micelles): 11.2 ± 1.4%
Nc1nc(O)c2ncn(COC(CO)CO)c2n1 — minimum cytotoxic concentration (HEL): > 100 µM
CN1C(C(=O)Nc2cccc(F)n2)=C(O)c2ccccc2S1(=O)=O — Papp (MDCK low-efflux cells; passive permeability; apical to basolateral): 43 ×10⁻⁶ cm/s
Cc1cccc(C)c1N(CC(=O)Nc1ccc(-c2ncon2)cc1)C(=O)C1CCS(=O)(=O)CC1 — CC50 (primary human fibroblasts uninfected; live/dead staining; 48 h): > 60000 nM
C[C@H](CCC(=O)NCC(=O)O)[C@H]1CC[C@H]2[C@@H]3[C@H](O)C[C@@H]4C[C@H](O)CC[C@]4(C)[C@H]3C[C@H](O)[C@]12C — bile salt transported fraction (human hepatocytes in suspension; refers to: cholic acid, CDCA; 100 µM, 1 h): > 90%
Cc1ccc2cccc(O)c2n1 — Papp (RRCK low-efflux MDCK-II cells; 1.5 h, 37 °C, apical to basal): 3.35 ×10⁻⁶ cm/s
CC(C)(C)NCC(O)c1cc(O)cc(O)c1 (stereo not drawn) — Papp (MDCK low-efflux cells; passive permeability; apical to basolateral): 1 ×10⁻⁶ cm/s
COc1cccc(-c2n[nH]c(SCc3ccccn3)n2)c1OC — micronucleated binucleated cells (CHO-WBL; in vitro micronucleus test; 50 µg/mL, 3 h, together with: rat liver S9): 1.2%
CCCCCCNc1nc(NC2CCN(C)CC2)c2cc(OC)c(OC)cc2n1 — CC50 (THP-1 PMA-differentiated macrophages; CellTiter-Glo; 72 h, host cell cytotoxicity): 1190 nM
Cc1cn([C@H]2C[C@H](N=[N+]=[N-])[C@@H](CO)O2)c(=O)[nH]c1=O — time to intracellular steady state (Cells, MOLT-4 and HUVEC; RPMI-1640, 10% FBS; concentration not given, constant extracellular exposure): ~10 h
Cc1nn(C)cc1S(=O)(=O)NC(=O)c1ccc(-n2ccc(OCC(C)(C)C(F)(F)F)n2)nc1N1C[C@@H](C)CC1(C)C — Papp (MDCK low-efflux cells; passive permeability; apical to basolateral): 34.2 ×10⁻⁶ cm/s
C[C@H](NC(=O)[C@@]1(Cc2ccccc2)CCN1C(=O)OCc1ccccc1)C(=O)NC(C)(C)C — minimum cytotoxic concentration (HEL; cell morphology): > 100 µM
COc1ccccc1OCC(O)CN1CCN(CC(=O)Nc2c(C)cccc2C)CC1 (stereo not drawn) — spike slope (hiPSC-derived cardiomyocytes; 50 µM, coupled and decoupled): decreased

Some of these lines once more:
C[C@H](CCC(=O)NCC(=O)O)[C@H]1CC[C@H]2[C@@H]3[C@H](O)C[C@@H]4C[C@H](O)CC[C@]4(C)[C@H]3C[C@H](O)[C@]12C — bile salt transported fraction (human hepatocytes in suspension; refers to: cholic acid, CDCA; 100 µM, 1 h): > 90%
Cc1ccc2cccc(O)c2n1 — Papp (RRCK low-efflux MDCK-II cells; 1.5 h, 37 °C, apical to basal): 3.35 ×10⁻⁶ cm/s
CC(C)(C)NCC(O)c1cc(O)cc(O)c1 (stereo not drawn) — Papp (MDCK low-efflux cells; passive permeability; apical to basolateral): 1 ×10⁻⁶ cm/s
